{"data": "Results of several laboratories", "note": "Each line is one published result; not all experiments were run side by side. Several values in a cell are separate wells, animals, samples, runs or records. ± gives the spread as reported.", "chain of UniProt P33261 (whole entry, looked up)": "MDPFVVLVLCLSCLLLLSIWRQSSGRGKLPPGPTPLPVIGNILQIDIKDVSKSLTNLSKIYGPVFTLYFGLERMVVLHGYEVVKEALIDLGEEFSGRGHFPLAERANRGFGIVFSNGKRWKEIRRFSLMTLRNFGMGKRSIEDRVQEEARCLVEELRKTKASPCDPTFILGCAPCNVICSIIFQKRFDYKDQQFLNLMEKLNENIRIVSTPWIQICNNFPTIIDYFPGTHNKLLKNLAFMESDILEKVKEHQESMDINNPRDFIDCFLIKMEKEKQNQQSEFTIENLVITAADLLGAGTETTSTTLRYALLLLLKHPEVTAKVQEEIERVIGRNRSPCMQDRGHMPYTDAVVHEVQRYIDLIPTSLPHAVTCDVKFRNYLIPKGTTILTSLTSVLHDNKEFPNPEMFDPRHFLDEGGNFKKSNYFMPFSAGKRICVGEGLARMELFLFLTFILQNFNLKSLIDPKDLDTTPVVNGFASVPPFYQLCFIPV", "chain of UniProt P50750 (whole entry, looked up)": "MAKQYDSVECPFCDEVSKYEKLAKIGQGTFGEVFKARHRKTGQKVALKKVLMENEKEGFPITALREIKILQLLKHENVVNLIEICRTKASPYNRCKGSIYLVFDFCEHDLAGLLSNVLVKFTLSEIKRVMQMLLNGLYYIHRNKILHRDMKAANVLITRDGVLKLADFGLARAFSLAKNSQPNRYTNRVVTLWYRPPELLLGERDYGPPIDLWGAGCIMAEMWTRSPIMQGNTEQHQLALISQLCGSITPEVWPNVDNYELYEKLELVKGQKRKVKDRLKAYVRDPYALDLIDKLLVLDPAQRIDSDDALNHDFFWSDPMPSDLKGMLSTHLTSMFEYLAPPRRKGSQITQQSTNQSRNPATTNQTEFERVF", "chain of UniProt P48730 (whole entry, looked up)": "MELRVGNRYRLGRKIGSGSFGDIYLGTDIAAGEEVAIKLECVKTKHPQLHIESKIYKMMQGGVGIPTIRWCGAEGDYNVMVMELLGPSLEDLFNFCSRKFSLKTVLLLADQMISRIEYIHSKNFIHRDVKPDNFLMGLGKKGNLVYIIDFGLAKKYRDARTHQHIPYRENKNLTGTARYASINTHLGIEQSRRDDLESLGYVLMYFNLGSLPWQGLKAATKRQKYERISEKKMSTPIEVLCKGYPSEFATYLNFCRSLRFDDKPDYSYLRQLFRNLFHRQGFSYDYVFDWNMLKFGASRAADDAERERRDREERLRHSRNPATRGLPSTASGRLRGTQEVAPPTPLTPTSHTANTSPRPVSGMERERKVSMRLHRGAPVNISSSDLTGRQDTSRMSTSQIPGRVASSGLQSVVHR", "chain of UniProt P29371 (whole entry, looked up)": "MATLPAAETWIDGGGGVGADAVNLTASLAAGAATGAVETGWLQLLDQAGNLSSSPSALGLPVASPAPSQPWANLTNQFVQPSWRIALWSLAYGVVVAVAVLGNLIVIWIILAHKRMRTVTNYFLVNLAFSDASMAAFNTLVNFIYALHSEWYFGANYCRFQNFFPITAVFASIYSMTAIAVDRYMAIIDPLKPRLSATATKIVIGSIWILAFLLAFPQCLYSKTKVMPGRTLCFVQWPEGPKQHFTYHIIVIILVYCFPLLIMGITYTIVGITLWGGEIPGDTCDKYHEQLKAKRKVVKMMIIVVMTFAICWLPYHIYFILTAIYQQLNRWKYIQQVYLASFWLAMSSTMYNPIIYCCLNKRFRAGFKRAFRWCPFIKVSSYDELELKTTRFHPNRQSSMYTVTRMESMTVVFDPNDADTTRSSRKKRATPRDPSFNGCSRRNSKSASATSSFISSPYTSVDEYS"}
{"SMILES": "C=Cc1c(C)c2cc3nc(c(CC(=O)[O-])c4[n-]c(cc5nc(cc1[n-]2)C(C)=C5CC)c(C)c4C(=O)[O-])C(CCC(=O)[O-])C3C.[Cu+2].[Na+].[Na+].[Na+] (stereo not drawn)", "system": "Wistar rat, male", "conditions": "oral, 1000 mg/kg daily, 28 days", "quantity": "haemoglobin", "value": "14.4 ± 0.7 g/dL"}
{"SMILES": "O=C1NC2(CC2)COc2ncc(F)cc2[C@H]2COCCN2c2ccn3ncc1c3n2", "system": "Sprague-Dawley rat, male, blood", "conditions": "oral, 2.5 mg/kg/day, 4 weeks, end of treatment, subacute toxicity", "quantity": "monocyte percentage", "value": "2.3 ± 0.8%"}
{"SMILES": "CN(C)[C@H]1C[C@@]23CC[C@@]4(O2)C(=CC[C@]2(C)[C@@H](c5ccc6ccncc6c5)CC[C@H]24)C=C3[C@@H](O)[C@@H]1O", "tested on": "CDK9 (Homo sapiens, UniProt P50750)", "assay": "ATP probe labelling, inhibitor, KiNativ profiling", "conditions": "1 µM", "quantity": "inhibition", "value": "1.1%"}
{"SMILES": "CC(C)(C)C(=O)OCOP(=O)(OCOC(=O)C(C)(C)C)C1CCCN(O)C1=O (stereo not drawn)", "tested on": "OVCAR-5", "quantity": "log GI50", "value": "-5.7 log M"}
{"SMILES": "CC(C)C[C@@H](NC(=O)[C@@H](CCCNC(=N)N)NC(=O)[C@@H](Cc1c[nH]cn1)NC(=O)[C@@H](Cc1c[nH]c2ccccc12)NC(=O)[C@@H](Cc1c[nH]cn1)NC(=O)[C@@H](Cc1ccccc1)NC(=O)[C@H](NC(=O)[C@@H](Cc1ccc(O)cc1)NC(=O)CNC(=O)CNC(=O)CCOCCOCCOCCNC(=O)CN1CCN(CC(=O)O)CCN(CC(=O)O)CC1)[C@H](C)O)C(=O)N[C@H](CC(N)=O)C(=O)N1CCC[C@@H]1C(=O)O [gallium-68 labelled]", "system": "C57BL/6 mice, male", "conditions": "intravenous, 1.85 MBq, 30 min", "how to read": "reference: tumour over brain", "quantity": "tissue ratio", "value": "3.22 ± 0.68"}
{"SMILES": "CC(=O)N[C@H](C(=O)N[C@@H](CCCC(=O)OC(C)(C)C)C(=O)N[C@@H](CCC1CCCCC1)C(=O)N[C@@H](CC(=O)O)C(=O)COC(=O)c1c(C)cccc1C)C(C)(C)C", "system": "C57BL/6N mouse, serum", "conditions": "concentration not given, compound alone", "quantity": "ALT", "value": "318 U/L and 408 U/L and 444 U/L and 270 U/L and 546 U/L and 550 U/L"}
{"SMILES": "CSCC[C@H](N)C(=O)N[C@@H](C)C(=O)N[C@@H](CCCNC(=N)N)C(=O)N[C@@H](CCCNC(=N)N)C(=O)N[C@@H](CC(=O)O)C(=O)N[C@@H](CCCCN)C(=O)N[C@H](C(=O)N[C@@H](CC(=O)O)C(=O)N[C@@H](Cc1ccccc1)C(=O)N[C@@H](C)C(=O)N[C@@H](CCCNC(=N)N)C(=O)N[C@@H](CCCNC(=N)N)C(=O)N[C@@H](CCCNC(=N)N)C(=O)N[C@@H](CCCNC(=N)N)C(=O)NCCCCCC(=O)NCCCCC(NC(=O)CCCCCNC(=O)[C@H](CCCNC(=N)N)NC(=O)[C@H](CCCNC(=N)N)NC(=O)[C@H](CCCNC(=N)N)NC(=O)[C@H](CCCNC(=N)N)NC(=O)[C@H](C)NC(=O)[C@H](Cc1ccccc1)NC(=O)[C@H](CC(=O)O)NC(=O)[C@@H](NC(=O)[C@H](CCCCN)NC(=O)[C@H](CC(=O)O)NC(=O)[C@H](CCCNC(=N)N)NC(=O)[C@H](CCCNC(=N)N)NC(=O)[C@H](C)NC(=O)[C@@H](N)CCSC)[C@@H](C)O)C(=O)NCCCCC(NC(=O)C(CCCCNC(=O)CCCCCNC(=O)[C@H](CCCNC(=N)N)NC(=O)[C@H](CCCNC(=N)N)NC(=O)[C@H](CCCNC(=N)N)NC(=O)[C@H](CCCNC(=N)N)NC(=O)[C@H](C)NC(=O)[C@H](Cc1ccccc1)NC(=O)[C@H](CC(=O)O)NC(=O)[C@@H](NC(=O)[C@H](CCCCN)NC(=O)[C@H](CC(=O)O)NC(=O)[C@H](CCCNC(=N)N)NC(=O)[C@H](CCCNC(=N)N)NC(=O)[C@H](C)NC(=O)[C@@H](N)CCSC)[C@@H](C)O)NC(=O)CCCCCNC(=O)[C@H](CCCNC(=N)N)NC(=O)[C@H](CCCNC(=N)N)NC(=O)[C@H](CCCNC(=N)N)NC(=O)[C@H](CCCNC(=N)N)NC(=O)[C@H](C)NC(=O)[C@H](Cc1ccccc1)NC(=O)[C@H](CC(=O)O)NC(=O)[C@@H](NC(=O)[C@H](CCCCN)NC(=O)[C@H](CC(=O)O)NC(=O)[C@H](CCCNC(=N)N)NC(=O)[C@H](CCCNC(=N)N)NC(=O)[C@H](C)NC(=O)[C@@H](N)CCSC)[C@@H](C)O)C(N)=O)[C@@H](C)O (stereo partly drawn)", "system": "C57BL/6 mouse female, pancreas", "conditions": "dose not given, 6 h", "how to read": "reference: total", "quantity": "mean tissue distribution", "value": "0.94%"}
{"SMILES": "COc1ccccc1-c1n[nH]c2nc(NC3CCN(C(=O)Cc4ccc(F)cc4F)CC3)ncc12", "assay": "bead binding, competition bead pull-down, measured: LINJ.30.3230", "system": "Leishmania donovani extract", "conditions": "10 µM", "how to read": "reference: vehicle", "quantity": "relative abundance", "value": 0.85}
{"SMILES": "CC(C)=CCC/C(C)=C\\CCn1cc(CC(P(=O)(O)O)P(=O)(O)O)nn1", "assay": "equilibrium dialysis", "system": "mouse plasma", "conditions": "1 µg/mL, 4 h", "quantity": "fraction unbound", "value": 0.063}
{"SMILES": "CCCCCCCCCCCCCCCC(=O)N[C@@H](CCC(=O)NCCOCCOCCC(=O)NCCOCCOCCC(=O)NCCCC[C@H](NC(=O)[C@H](CC(=O)O)NC(=O)[C@H](CC(C)C)NC(=O)[C@H](Cc1ccc(O)cc1)NC(=O)[C@H](CCCCN)NC(=O)[C@H](CO)NC(=O)[C@H](Cc1ccc(O)cc1)NC(=O)[C@H](CC(=O)O)NC(=O)[C@H](CO)NC(=O)[C@@H](NC(=O)[C@H](Cc1ccccc1)NC(=O)[C@@H](NC(=O)CNC(=O)[C@H](CCC(N)=O)NC(=O)[C@@H](CO)NC(=O)[C@@H](N)Cc1c[nH]cn1)[C@@H](C)O)[C@@H](C)O)C(=O)N[C@@H](CCCNC(=N)N)C(=O)N[C@@H](CCCNC(=N)N)C(=O)N[C@@H](C)C(=O)N[C@@H](CCC(N)=O)C(=O)N[C@@H](CC(=O)O)C(=O)N[C@@H](Cc1ccccc1)C(=O)N[C@H](C(=O)N[C@@H](CCC(N)=O)C(=O)N[C@@H](Cc1c[nH]c2ccccc12)C(=O)N[C@@H](CC(C)C)C(=O)N[C@@H](CC(C)C)C(=O)N[C@@H](CC(N)=O)C(=O)N[C@H](C(=O)NCC(=O)NCC(=O)N1CCC[C@H]1C(=O)N[C@@H](CO)C(=O)N[C@@H](CO)C(=O)NCC(=O)N[C@@H](C)C(=O)N1CCC[C@H]1C(=O)N1CCC[C@H]1C(=O)N1CCC[C@H]1C(=O)N[C@@H](CO)C(N)=O)[C@@H](C)O)C(C)C)C(=O)O", "assay": "measured: ALP", "system": "Sprague-Dawley rat, male", "conditions": "subcutaneous, 500 µg/kg once daily, 14 days", "quantity": "serum enzyme activity", "value": "174 ± 38.7 U/L"}
{"SMILES": "CC(C)[C@H]1NC(=O)C[C@H]2/C=C/CCSSC[C@@H](NC1=O)C(=O)N[C@H](Cc1cccc3ccccc13)C(=O)NCC(=O)O2", "tested on": "CSNK1D (Homo sapiens, UniProt P48730)", "assay": "enzyme activity, inhibitor", "conditions": "10 µM", "quantity": "inhibition", "value": "3.6%"}
{"SMILES": "Cc1cc(-c2ccc3ccccc3c2)nnc1NCCN1CCN(C)CC1", "tested on": "CYP2C19 (Homo sapiens, UniProt P33261)", "assay": "substrate", "system": "recombinant enzyme", "conditions": "100 nM", "quantity": "half-life", "value": "> 1 h"}
{"SMILES": "CC(C)[C@@H]1NC(=O)CNC(=O)[C@H](CC(N)=O)NC(=O)[C@H](CCCNC(=N)N)NC(=O)[C@H](Cc2ccc(O)cc2)NC(=O)[C@H](C(C)C)NC(=O)[C@@H](NC(=O)[C@@H](NC(=O)[C@H](CC(N)=O)NC(=O)[C@H](Cc2c[nH]c3ccccc23)NC(=O)[C@H](C)NC(=O)[C@H](Cc2ccccc2)NC(=O)CNC(=O)[C@H](CCCCN)NC(=O)[C@H](Cc2ccccc2)NC(=O)[C@H](Cc2ccccc2)NC(=O)[C@H](CCCCN)NC(=O)OCC2c3ccccc3-c3ccccc32)C(C)C)CSSC[C@@H](C(=O)N[C@@H](Cc2c[nH]cn2)C(=O)N[C@@H](CCCNC(=N)N)C(=O)N[C@@H](CCCNC(=N)N)C(=O)N[C@@H](C)C(=O)N[C@@H](CC(N)=O)C(N)=O)NC(=O)[C@H](C(C)C)NC(=O)[C@H](CCCNC(=N)N)NC1=O", "assay": "HPLC", "system": "mouse liver homogenate 50 mg/mL", "conditions": "6.00 h", "quantity": "peptide remaining", "value": "35.1% and 38.1% and 41.1%"}
{"SMILES": "CC[C@H](C)[C@H](NC(=O)[C@H](CCCCN)NC(=O)CNC(=O)[C@H](CC(C)C)NC(=O)[C@H](Cc1ccccc1)NC(=O)[C@H](CCCCN)NC(=O)[C@H](CO)NC(=O)[C@H](Cc1ccccc1)NC(=O)[C@H](Cc1c[nH]c2ccccc12)NC(=O)[C@H](CCC(N)=O)NC(=O)[C@@H](NC(=O)[C@H](Cc1ccccc1)NC(=O)CCCCCNC(=O)CN1CCN(CC(=O)O)CCN(CC(=O)O)CCN(CC(=O)O)CC1)C(C)C)C(=O)N[C@@H](CCC(=O)O)C(=O)N1CCC[C@H]1C(=O)N[C@@H](CC(=O)O)C(=O)N[C@H](C(=O)N[C@@H](CO)C(=O)N[C@@H](CCC(N)=O)C(=O)N[C@H](C(=O)N[C@@H](CCC(N)=O)C(=O)N[C@@H](CC(=O)O)C(=O)N1CCC[C@H]1C(=O)N[C@@H](CC(N)=O)C(=O)N[C@@H](CC(=O)O)C(=O)N[C@@H](CCC(N)=O)C(=O)N[C@@H](Cc1ccc(O)cc1)C(=O)N[C@@H](CCC(=O)O)C(=O)N1CCC[C@H]1C(=O)N[C@@H](Cc1ccccc1)C(=O)O)C(C)C)C(C)C [copper-64 labelled]", "assay": "dynamic PET", "system": "mouse both sexes, CT26 tumour, checkpoint inhibitor-treated, tumour", "conditions": "intravenous, 100 µCi/mouse, 390 s", "quantity": "SUVmean", "value": "3.2 SUV"}
{"SMILES": "C[C@H](O)[C@@H](NC(=O)[C@H]1CCCN1C(=O)[C@@H](CCCCN)NC(=O)[C@@H](CO)NC(=O)[C@@H](Cc1ccc(O)cc1)NC(=O)[C@@H](CC(N)=O)NC(=O)CCOCCOCCOCCNC(=O)CN1CCN(CC(=O)O)CCN(CC(=O)O)CCN(CC(=O)O)CC1)C(=O)N[C@H](CC(=O)O)C(=O)N[C@H](CCCNC(=N)N)C(=O)N[C@H](CCC(N)=O)C(=O)N[C@H](Cc1ccc(O)cc1)C(=O)N[C@H](Cc1c[nH]cn1)C(=O)N[C@H](Cc1ccccc1)C(N)=O [gallium-68 labelled]", "system": "BALB/c nude mice U-87 MG tumour, brain", "conditions": "intravenous, 1.85 MBq, 1 h, radiolabelled", "quantity": "tissue uptake", "value": "0.03 ± 0.01 %ID/g"}
{"SMILES": "CS(C)(=O)=Nc1ccc(-c2ccc(-c3nc4cc(O[C@@H]5CO[C@H]6[C@@H]5OC[C@H]6O)[nH]c4cc3F)cc2)cc1", "tested on": "TACR3 (Homo sapiens, UniProt P29371)", "assay": "calcium signal, antagonist", "conditions": "10 µM", "quantity": "inhibition", "value": "69%"}
{"SMILES": "O=C(c1cc(Cc2n[nH]c(=O)c3ccccc23)ccc1F)N1CC(CNC2CC2)C1", "system": "Wistar Han rat, male, blood", "conditions": "oral, 30 mg/kg daily, 4 weeks", "quantity": "haemoglobin", "value": "15.6 ± 1.2 g/dL"}
{"SMILES": "COc1ccc([C@@H]2CC(=O)c3c(O)cc(O[C@@H]4O[C@H](CO)[C@@H](O)[C@H](O)[C@H]4O[C@@H]4O[C@@H](C)[C@H](O)[C@@H](O)[C@H]4O)cc3O2)cc1O", "system": "Sprague-Dawley rats, obese, plasma", "conditions": "100 mg/kg daily, 15 days", "how to read": "reference: lean rats", "quantity": "plasma metabolite level", "value": "no effect"}
